Experimental data pooled from the literature.
Each numbered part is a random draw from the data of one study; scales do not carry over between parts. Positions count from the first letter of the parent shown.
Chain of UniProt O15294 (whole entry, looked up): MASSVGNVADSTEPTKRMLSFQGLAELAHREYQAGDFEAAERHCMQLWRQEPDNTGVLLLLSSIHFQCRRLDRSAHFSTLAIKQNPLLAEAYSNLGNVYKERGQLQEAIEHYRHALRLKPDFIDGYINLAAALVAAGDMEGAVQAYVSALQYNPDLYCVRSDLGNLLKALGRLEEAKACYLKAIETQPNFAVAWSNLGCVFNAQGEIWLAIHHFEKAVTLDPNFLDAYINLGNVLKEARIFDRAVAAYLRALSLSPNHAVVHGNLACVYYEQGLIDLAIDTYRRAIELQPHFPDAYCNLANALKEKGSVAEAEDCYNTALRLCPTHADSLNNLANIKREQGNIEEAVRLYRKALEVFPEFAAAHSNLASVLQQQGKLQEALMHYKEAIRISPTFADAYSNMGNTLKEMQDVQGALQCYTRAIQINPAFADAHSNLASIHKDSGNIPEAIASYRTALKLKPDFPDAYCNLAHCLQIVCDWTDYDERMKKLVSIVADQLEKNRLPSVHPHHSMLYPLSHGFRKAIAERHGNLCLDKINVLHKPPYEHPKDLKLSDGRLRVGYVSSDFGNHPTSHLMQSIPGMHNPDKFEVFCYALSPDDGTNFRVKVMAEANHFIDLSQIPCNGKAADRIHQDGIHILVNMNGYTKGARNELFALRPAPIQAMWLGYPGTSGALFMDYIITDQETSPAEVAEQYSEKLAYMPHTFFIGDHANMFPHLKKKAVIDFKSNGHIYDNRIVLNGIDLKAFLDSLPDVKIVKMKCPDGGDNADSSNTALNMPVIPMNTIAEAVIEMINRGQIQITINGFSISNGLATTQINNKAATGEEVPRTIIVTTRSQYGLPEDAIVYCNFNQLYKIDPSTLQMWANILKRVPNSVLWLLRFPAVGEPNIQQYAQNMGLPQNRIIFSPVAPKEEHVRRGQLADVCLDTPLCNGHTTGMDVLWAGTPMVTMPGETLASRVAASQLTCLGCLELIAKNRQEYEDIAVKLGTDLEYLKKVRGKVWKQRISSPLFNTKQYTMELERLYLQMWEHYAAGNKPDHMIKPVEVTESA

Series 1 — method: RNA Bind-n-Seq; form: RNA; medium: in vitro; concentration: 200 nM; setting: whole 134-nt RNA, ends assumed; together with: 150 mM KCl; relative to: input library; direction: higher = stronger binding
Target: Ras GTPase-activating protein-binding protein 1, full length (G3BP1, Homo sapiens, UniProt Q13283)
Chain of UniProt Q13283 (whole entry, looked up): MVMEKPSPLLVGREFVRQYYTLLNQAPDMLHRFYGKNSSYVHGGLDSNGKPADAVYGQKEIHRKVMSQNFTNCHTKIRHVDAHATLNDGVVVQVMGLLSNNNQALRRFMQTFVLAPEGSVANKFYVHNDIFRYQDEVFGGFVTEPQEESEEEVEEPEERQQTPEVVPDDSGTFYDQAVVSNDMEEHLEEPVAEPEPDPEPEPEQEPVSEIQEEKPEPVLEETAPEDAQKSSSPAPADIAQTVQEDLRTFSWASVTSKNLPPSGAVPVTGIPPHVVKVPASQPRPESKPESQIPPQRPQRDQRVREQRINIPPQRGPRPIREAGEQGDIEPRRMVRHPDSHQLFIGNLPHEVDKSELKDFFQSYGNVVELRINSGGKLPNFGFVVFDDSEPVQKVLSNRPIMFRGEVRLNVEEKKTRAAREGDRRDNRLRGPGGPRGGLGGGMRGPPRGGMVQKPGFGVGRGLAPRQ
Shared flanks, not repeated: GGGAGUUCUACAGUCCGACGAUC … UGGAAUUCUCGGGUGUCAAGG
Oligonucleotide	log2 enrichment
UCAAGUCCUGUGCUACACAUCGUAUGUACCGAAUCGGAAAGGGGAAAGGAAAGGAAAGUAUUAUGUUACGCCGUUCGGAUCUGCACUUCC	-1.07
UCAAGUCCUGUGCUACACAUCGUAUGUACCGAAUCGGGAAAAAGGGUGGGAGGGAAAGUAUUAUGUUACGCCGUUCGGAUCUGCACUUCC	1.11
UCCUGUGCUACACAUCGUAUGUACCGAAUCGGGGUUUUUGGGGAAAGGGGUUUUUGGGGAAAGUAUUAUGUUACGCCGUUCGGAUCUGCA	0.8
CCUCACCACUCCUUUCUCUUUCAUUCAGUUCCGCUCAGUGGACGAGACUACCCAGGCUAUGGCCUUUGAUGGCAUCAUCUUCCAGGGCCA	0.243
UAACUUUAGAGGAGGAUCUGAUGGAUAUGGCACUGGACGUGGAUUUGGGGAUGGCUAUAAUGGGUAUGGAGGAGGACCUGGAGGUGGCAA	0.48
AAGUCCUGUGCUACACAUCGUAUGUACCGAAUCGGCCCCCGGCCCCCGGCCCCCGGAAAGUAUUAUGUUACGCCGUUCGGAUCUGCACUU	-0.408
CCUGUGCUACACAUCGUAUGUACCGAAUCGGAAAAAAAGGGGAAAAAAAGGAAAAAAAGGGAAAGUAUUAUGUUACGCCGUUCGGAUCUG	-0.784
UGCAGCAGCGCCAGGAAUCGAGGAUGGUAAAAUGACCCAGGGGAAGAAGAAGAAACGGGCCGCGAACCGCAGUAUCAUGCUGGCCAAGAA	-0.0769

Series 2 — method: protein-binding microarray; form: double-stranded DNA, one strand shown; medium: in vitro; concentration: 2540 nM top; setting: 60-bp whole probe; together with: salmon DNA 0.4 mg/ml; relative to: random background probes; direction: higher = stronger binding; shared flanks, not repeated: GCCTAGCAC … GTCTTGATTCGCTTGACGCTGCTG
Target: Interferon regulatory factor 3, full length, phosphomimetic (IRF3, Homo sapiens, UniProt Q14653, residues 1-427, S386D/S396D/S398D/S402D/T404D/S405D)
Chain of UniProt Q14653 (whole entry, unmodified, looked up): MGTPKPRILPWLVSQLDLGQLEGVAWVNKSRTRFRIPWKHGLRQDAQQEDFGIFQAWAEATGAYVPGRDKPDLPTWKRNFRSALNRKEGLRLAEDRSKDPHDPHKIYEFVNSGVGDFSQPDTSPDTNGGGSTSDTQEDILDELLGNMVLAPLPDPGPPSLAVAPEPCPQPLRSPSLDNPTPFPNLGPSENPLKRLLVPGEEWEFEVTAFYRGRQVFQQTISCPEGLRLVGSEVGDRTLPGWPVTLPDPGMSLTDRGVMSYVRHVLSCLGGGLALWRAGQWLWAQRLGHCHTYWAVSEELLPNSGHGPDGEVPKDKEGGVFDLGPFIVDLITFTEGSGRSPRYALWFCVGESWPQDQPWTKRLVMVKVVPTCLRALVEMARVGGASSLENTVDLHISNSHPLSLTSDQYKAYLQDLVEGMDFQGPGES
Oligonucleotide	fitted relative affinity [z-score]
GACGGTATCGCTTTCGGGACGTGCTAG	4.72
GACGCTATCGGTCTCGGGACGTGCTAG	1.31
TTAGGTATTGGTTTCGGTTAGTGCTAG	5.75
CATTATATTTTAATCACATAGTGCTAG	1.55
TTAGGTTTCGACTATCGGTTTGTGCTA	2.88
GACGGACTGGACACTGGGCACGTGCTA	-0.805
TTAGGACTGGGTCTCGGTTGGTGCTAG	-0.832
GACGGACTGGGCTATCGGGACGTGCTA	-0.857

Series 3 — method: DHFR PCA, dose-response; medium: yeast; together with: (+)-ABA, dose series; direction: lower = more sensitive
Target: ABI1, truncated, D143A, DHFR fusion (Arabidopsis thaliana, UniProt P49597)
Setting: Hill fit, not affinity, not high confidence
Starting sequence: PYL1, truncated, DHFR fusion (Arabidopsis thaliana, UniProt Q8VZS8); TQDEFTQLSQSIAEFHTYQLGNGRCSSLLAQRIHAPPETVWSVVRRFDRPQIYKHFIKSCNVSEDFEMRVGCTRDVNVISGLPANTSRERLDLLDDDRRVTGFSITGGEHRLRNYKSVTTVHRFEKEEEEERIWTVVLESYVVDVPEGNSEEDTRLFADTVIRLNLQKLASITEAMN
Substitution	ABA EC50 [µM]
R74I	9.1
Q51C	55.2
L138H	103
N165R	7.05
H16C	617
S87Q	0.914
F157R	4.25
I162Q	901

Further values, each from its own experiment
Molecule	target	test	system	setting	scale	quantity	result
DFMGLEFMPVYQIRI	UDP-N-acetylglucosamine--peptide N-acetylglucosaminyltransferase 110 kDa subunit (OGT, Homo sapiens, UniProt O15294)	binding, phage display NGS	peptide	concentration not given, panning round 2	relative to: input library	enrichment fold change	14.8
